# Published values from different studies.
# Protocols differ between the studies behind these lines. “And” joins repeats or separate records; there may be more than shown. ± gives the spread as reported.
# PPARG: Peroxisome proliferator-activated receptor gamma (PPARG, Homo sapiens, UniProt P37231)
# Chain of UniProt P37231 (whole entry, looked up): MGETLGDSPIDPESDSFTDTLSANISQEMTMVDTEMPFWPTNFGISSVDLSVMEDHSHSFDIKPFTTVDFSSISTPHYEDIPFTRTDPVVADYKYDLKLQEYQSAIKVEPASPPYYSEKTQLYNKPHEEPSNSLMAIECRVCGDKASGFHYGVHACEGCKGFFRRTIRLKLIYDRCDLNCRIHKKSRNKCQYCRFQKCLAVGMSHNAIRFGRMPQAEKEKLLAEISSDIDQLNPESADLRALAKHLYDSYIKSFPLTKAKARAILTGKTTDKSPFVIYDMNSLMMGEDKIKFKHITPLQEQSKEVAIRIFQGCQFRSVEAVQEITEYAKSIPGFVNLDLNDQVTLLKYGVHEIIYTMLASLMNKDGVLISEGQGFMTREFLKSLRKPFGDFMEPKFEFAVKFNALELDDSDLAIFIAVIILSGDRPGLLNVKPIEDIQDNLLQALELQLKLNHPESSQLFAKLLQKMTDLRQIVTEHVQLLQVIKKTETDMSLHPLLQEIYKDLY
# TMEM97: Sigma intracellular receptor 2 (TMEM97, Homo sapiens, UniProt Q5BJF2)
# Chain of UniProt Q5BJF2 (whole entry, looked up): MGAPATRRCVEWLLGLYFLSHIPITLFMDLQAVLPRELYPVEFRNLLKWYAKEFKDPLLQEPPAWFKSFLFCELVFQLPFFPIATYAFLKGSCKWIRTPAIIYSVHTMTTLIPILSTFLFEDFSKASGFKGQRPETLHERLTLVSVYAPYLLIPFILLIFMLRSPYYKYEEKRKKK
# PPM1D: Protein phosphatase 1D (PPM1D, Homo sapiens, UniProt O15297)
# Chain of UniProt Q9UM07 (whole entry, looked up): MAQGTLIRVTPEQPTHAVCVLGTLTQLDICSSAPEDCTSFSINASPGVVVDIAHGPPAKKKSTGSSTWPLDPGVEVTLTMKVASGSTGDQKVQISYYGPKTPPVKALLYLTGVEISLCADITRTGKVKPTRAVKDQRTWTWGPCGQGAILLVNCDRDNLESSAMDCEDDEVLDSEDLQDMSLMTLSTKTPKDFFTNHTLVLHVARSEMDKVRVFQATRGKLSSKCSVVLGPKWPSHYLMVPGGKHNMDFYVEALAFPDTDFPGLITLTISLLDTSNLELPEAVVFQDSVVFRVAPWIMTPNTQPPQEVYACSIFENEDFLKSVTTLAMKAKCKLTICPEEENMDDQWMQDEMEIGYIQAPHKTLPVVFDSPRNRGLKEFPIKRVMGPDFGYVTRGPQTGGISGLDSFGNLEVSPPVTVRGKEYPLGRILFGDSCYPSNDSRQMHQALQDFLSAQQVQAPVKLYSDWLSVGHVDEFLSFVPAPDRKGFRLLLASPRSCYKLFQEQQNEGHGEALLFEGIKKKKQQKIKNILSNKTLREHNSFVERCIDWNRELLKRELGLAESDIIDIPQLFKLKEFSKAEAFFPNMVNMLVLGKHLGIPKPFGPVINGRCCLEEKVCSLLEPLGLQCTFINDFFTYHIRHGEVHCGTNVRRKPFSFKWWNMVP
# Chain of UniProt A0A109QYD3 (whole entry, unmodified, looked up): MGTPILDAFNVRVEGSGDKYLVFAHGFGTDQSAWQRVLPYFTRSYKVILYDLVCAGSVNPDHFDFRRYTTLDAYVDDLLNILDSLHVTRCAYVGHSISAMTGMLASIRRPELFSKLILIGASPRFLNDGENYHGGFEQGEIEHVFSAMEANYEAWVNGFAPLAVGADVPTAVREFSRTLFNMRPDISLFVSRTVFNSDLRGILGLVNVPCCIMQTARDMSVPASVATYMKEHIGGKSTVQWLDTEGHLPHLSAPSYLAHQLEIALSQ
# Chain of UniProt O15297 (whole entry, looked up): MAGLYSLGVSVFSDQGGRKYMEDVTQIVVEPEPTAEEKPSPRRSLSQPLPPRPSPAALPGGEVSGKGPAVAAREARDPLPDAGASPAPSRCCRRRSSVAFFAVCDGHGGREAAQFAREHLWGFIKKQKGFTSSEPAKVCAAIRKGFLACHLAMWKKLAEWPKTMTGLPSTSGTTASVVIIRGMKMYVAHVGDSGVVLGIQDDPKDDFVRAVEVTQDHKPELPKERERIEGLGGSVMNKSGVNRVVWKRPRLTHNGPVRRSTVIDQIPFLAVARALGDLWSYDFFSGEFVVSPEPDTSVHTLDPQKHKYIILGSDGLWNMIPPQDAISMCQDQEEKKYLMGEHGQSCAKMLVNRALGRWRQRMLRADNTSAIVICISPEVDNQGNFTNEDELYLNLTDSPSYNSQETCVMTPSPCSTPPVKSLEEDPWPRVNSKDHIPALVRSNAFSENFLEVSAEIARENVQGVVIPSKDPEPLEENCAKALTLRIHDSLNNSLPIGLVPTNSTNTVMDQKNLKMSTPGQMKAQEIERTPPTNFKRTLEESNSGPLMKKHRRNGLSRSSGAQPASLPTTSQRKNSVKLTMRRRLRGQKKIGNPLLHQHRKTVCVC
# Chain of UniProt Q9NRM0 (whole entry, looked up): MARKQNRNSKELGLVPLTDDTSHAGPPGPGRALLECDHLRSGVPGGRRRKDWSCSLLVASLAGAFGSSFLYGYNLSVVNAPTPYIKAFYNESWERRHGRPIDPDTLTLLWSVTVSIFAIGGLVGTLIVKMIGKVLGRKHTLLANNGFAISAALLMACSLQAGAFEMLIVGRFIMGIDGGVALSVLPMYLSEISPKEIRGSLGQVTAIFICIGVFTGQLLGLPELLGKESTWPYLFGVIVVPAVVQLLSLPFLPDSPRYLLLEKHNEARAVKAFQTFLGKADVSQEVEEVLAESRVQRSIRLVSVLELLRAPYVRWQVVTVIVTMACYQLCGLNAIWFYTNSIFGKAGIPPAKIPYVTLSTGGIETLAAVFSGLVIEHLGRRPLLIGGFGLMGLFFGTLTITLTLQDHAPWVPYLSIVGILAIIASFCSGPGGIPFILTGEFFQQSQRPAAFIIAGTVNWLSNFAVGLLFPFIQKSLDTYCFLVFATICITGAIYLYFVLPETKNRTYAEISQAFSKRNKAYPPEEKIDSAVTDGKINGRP
# Chain of UniProt P02716 (whole entry, unmodified, looked up): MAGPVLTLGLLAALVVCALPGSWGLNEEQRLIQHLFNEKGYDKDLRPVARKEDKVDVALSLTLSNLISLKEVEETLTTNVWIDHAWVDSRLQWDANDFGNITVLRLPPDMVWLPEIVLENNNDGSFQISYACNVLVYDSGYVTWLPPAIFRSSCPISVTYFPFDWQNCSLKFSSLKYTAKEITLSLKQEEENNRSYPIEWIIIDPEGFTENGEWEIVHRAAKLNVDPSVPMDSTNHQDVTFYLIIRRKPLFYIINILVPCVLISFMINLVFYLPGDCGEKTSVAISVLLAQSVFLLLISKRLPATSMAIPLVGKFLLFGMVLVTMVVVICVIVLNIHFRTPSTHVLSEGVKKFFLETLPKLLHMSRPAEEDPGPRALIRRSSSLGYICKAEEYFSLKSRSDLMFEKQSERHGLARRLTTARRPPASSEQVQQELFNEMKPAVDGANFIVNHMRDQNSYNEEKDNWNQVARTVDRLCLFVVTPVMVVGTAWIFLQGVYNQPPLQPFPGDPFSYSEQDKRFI
# Chain of UniProt Q8N1Q1 (whole entry, looked up): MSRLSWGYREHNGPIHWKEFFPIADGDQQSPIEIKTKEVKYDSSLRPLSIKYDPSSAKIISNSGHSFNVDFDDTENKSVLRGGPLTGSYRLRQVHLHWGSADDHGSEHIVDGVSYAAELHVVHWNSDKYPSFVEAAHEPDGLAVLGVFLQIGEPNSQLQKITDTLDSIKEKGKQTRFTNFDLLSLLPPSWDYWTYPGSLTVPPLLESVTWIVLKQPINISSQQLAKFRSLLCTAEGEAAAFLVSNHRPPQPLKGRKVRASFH
# Chain of UniProt P49840 (whole entry, looked up): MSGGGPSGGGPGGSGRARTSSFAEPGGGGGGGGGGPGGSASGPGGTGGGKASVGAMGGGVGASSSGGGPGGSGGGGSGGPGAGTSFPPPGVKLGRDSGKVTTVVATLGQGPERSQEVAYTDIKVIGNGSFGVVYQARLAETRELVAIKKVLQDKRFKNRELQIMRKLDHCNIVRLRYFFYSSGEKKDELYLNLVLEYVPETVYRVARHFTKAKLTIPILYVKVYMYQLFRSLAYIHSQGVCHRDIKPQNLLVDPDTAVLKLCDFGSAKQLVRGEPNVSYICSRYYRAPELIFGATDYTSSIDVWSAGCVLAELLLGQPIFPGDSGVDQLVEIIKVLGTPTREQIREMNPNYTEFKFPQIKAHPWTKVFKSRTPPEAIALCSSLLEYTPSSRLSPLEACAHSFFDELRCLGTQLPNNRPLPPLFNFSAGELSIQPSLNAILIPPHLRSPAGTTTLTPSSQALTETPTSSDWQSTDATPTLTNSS
# Chain of UniProt P08191 (whole entry, looked up): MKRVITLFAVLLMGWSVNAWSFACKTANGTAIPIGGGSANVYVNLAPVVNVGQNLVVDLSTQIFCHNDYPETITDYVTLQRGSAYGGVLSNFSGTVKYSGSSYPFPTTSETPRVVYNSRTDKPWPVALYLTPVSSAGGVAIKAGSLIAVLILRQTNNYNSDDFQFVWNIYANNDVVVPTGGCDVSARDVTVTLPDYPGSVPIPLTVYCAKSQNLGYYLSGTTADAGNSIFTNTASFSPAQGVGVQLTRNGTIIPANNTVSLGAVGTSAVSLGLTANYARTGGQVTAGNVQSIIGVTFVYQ
# Chain of UniProt Q9SZU7 (whole entry, looked up): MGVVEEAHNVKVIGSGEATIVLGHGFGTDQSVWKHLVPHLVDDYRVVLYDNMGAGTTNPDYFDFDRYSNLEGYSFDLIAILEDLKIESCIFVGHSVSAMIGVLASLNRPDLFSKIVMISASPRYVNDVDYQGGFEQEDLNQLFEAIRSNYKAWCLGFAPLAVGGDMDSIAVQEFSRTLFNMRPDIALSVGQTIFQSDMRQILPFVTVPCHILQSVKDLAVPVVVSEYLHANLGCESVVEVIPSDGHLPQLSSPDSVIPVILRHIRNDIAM
# Chain of UniProt P19256 (whole entry, looked up): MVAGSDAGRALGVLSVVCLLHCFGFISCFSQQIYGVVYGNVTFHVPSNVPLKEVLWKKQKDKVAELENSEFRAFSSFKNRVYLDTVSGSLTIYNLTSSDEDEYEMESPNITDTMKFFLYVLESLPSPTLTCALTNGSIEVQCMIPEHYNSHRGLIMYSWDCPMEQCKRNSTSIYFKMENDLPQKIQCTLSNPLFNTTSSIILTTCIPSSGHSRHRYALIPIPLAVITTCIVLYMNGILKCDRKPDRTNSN
Structure (SMILES),target,effect on,technique,pH,temperature,setting,Kd
Cn1ncc2cc(-c3cncc(Cl)c3N3CCC4(CCNC4=O)CC3)ccc21,"Glycogen synthase kinase-3 alpha (GSK3A, Homo sapiens, UniProt P49840)",cell-free assay,,,,lysate,1780 nM
Cc1c(Cc2ccc(OC(C)C(=O)O)cc2)c2ccc(C(=O)NC(C)c3ccc(C(C)(C)C)cc3)cc2n1C (mixture of isomers),PPARG,ligand displacement,TR-FRET,,,,25.5 nM
C[N+]1(C)CCCC1,"Chrnd/Chrna1/Chrne (Mus musculus, UniProt P02716+P04756+P20782, G173P/S470W)",,single-channel kinetics,,,P chain side site,203000 nM
Cc1c(Cc2ccc(F)c(OC(C)C(=O)O)c2)c2ccc(C(=O)NC(C)c3ccc(C(C)(C)C)cc3)cc2n1CC1CCC1 (centres unmarked),PPARG,ligand displacement,TR-FRET,,,,0.345 nM
C=CC(=O)N1CC2(CCN(c3nc(OC4CCN(CCCOC)CC4)nc4c(OCC(F)(F)F)c(-c5c(C)ccc6[nH]ncc56)c(C5CC5)cc34)CC2)C1,"GTPase KRas, GDP-bound (KRAS, Homo sapiens, UniProt P01116, G12D)",,SPR,,,,22100 ± 360 nM
COc1cc(C(=O)N2CC[C@@H](O)[C@@H](N)C2)cc2nc(-c3cc4cccnc4n3CC3CC3)n(C)c12,"Protein-arginine deiminase type-4 (PADI4, Homo sapiens, UniProt Q9UM07)",,surface plasmon resonance,,,,457 nM and 473 nM and 495 nM and 451 nM
CC(C)C[C@H](NC(=O)[C@H](Cc1ccc(O)cc1)NC(=O)[C@H](CC(N)=O)NC(=O)[C@H](CO)NC(=O)CNC(=O)[C@H](Cc1ccc(O)cc1)NC(=O)[C@H](CC(=O)O)NC(=O)CNC(=O)[C@H](Cc1ccc(O)cc1)NC(=O)[C@H](Cc1ccccc1)NC(=O)[C@@H]1CCCN1C(=O)[C@H](Cc1ccccc1)NC(=O)[C@H](CCC(=O)O)NC(=O)[C@H](CCCNC(=N)N)NC(=O)[C@H](Cc1c[nH]cn1)NC(=O)[C@H](CO)NC(=O)[C@H](Cc1c[nH]cn1)NC(=O)[C@H](Cc1c[nH]cn1)NC(=O)[C@H](CCCCN)NC(=O)[C@H](CCC(=O)O)NC(=O)[C@@H](N)Cc1c[nH]cn1)C(=O)N[C@@H](Cc1ccc(O)cc1)C(=O)N[C@@H](CC(=O)O)C(=O)N[C@@H](CC(N)=O)C(=O)O,TMEM97,,SPR,pH 7.4,25 °C,,> 50000 nM
CC(C)Cn1cc(Cc2cccc(OC(C)(C)C(=O)O)c2)c2cc(F)c(C(=O)N[C@@H](C)c3cccc(C(C)(C)C)c3)cc21,PPARG,ligand displacement,TR-FRET,,,,4.2 nM
C[C@@H]1NC(=O)[C@@H]2CSSC[C@H](NC(=O)[C@H](CC(=O)O)NC(=O)[C@H](CC(=O)O)NC(=O)CNC(=O)[C@H](CC(=O)O)NC(=O)[C@H](Cc3ccc(O)cc3)NC1=O)C(=O)N[C@@H](CCCCN)C(=O)N[C@@H](CO)C(=O)N[C@@H](C)C(=O)NCCc1cccc3c1Oc1c(cccc1-3)CCC(=O)N[C@@H](CO)C(=O)N2,"Lymphocyte function-associated antigen 3 (CD58, Homo sapiens, UniProt P19256)",binding to CD58,"SPR, immobilized CD58",,,,46 nM
CC(C)Cn1cc(Cc2cccc(OC(C)(C)C(=O)O)c2)c2ccc(C(=O)N[C@@H](C)c3cc(F)cc(C(C)(C)C)c3)cc21,PPARG,ligand displacement,TR-FRET,,,,2.87 nM
O=C(NS(=O)(=O)c1cccs1)c1cc2ccccc2n1Cc1ccc(Br)c2ccccc12,"Solute carrier family 2, facilitated glucose transporter member 9 (SLC2A9, Homo sapiens, UniProt Q9NRM0)",binding,,,,,6370 nM
Cc1c(Cc2ccc(Cl)c(O[C@@H](C)C(=O)O)c2)c2ccc(C(=O)N[C@@H](C)c3ccc(C(C)(C)C)cc3)cc2n1C,PPARG,ligand displacement,TR-FRET,,,,0.259 nM
COc1ccc(-c2nc(CC(=O)NC(c3nc4ccccc4[nH]3)C(C)C)cs2)cc1OC (centres unmarked),"CD27 antigen (CD27, Homo sapiens, UniProt P26842)",,microscale thermophoresis,,,,360 nM
N=C(N)NCCC[C@H](NC(=O)[C@H](Cc1c[nH]cn1)NC(=O)[C@@H](N)CO)C(=O)N[C@@H](CCC(=O)O)C(=O)N[C@@H](Cc1ccccc1)C(=O)N1CCC[C@H]1C(=O)N[C@@H](Cc1ccccc1)C(=O)N[C@@H](Cc1ccc(O)cc1)C(=O)NCC(=O)N[C@@H](CC(=O)O)C(=O)N[C@@H](Cc1ccc(O)cc1)C(=O)NCC(=O)N[C@@H](CO)C(=O)O,TMEM97,,SPR,pH 7.4,25 °C,,> 50000 nM
Cc1c(Cc2cccc(OC(C)(C)C(=O)O)c2)c2ccc(C(=O)NCc3cccc(C(C)(C)C)c3)cc2n1CC1CCC1,PPARG,ligand displacement,TR-FRET,,,,0.075 nM
N=C(N)NCCC[C@H](NC(=O)[C@H](Cc1c[nH]cn1)NC(=O)[C@H](CO)NC(=O)[C@H](Cc1c[nH]cn1)NC(=O)[C@H](Cc1c[nH]cn1)NC(=O)[C@H](CCCCN)NC(=O)[C@H](CCC(=O)O)NC(=O)[C@@H](N)Cc1c[nH]cn1)C(=O)N[C@@H](CCC(=O)O)C(=O)N[C@@H](Cc1ccccc1)C(=O)O,TMEM97,,SPR,pH 7.4,25 °C,,> 50000 nM
Cc1c[nH]c2nccc(-c3ccc(C(=O)N[C@@H]4c5c(F)cc(C(F)F)cc5C[C@@H]4O)cn3)c12,"Rho-associated protein kinase 2 (ROCK2, Homo sapiens, UniProt O75116)",binding,competition with immobilised ligand,,,,4.8 nM
Cc1c(Cc2ccc(Cl)c(O[C@@H](C)C(=O)O)c2)c2ccc(C(=O)N[C@@H](C)c3ccc(C(C)(C)C)cc3)cc2n1CC1CC1,PPARG,ligand displacement,TR-FRET,,,,0.124 nM
CC[C@H](C)[C@H](NC(=O)[C@H](C)NC(=O)[C@H](CC(C)C)NC(=O)[C@H](CCC(N)=O)NC(=O)[C@H](CCCNC(=N)N)NC(=O)CNC(=O)[C@@H](NC(=O)[C@H](CCC(N)=O)NC(=O)CNC(=O)[C@H](CCSC)NC(=O)[C@@H](NC(=O)[C@H](CO)NC(=O)[C@H](CO)NC(C)=O)[C@@H](C)O)C(C)C)C(=O)N[C@H](C(=O)NCC(=O)N[C@@H](CC(=O)O)C(=O)N[C@@H](CC(=O)O)C(=O)N[C@H](C(=O)N[C@@H](CC(N)=O)C(=O)N[C@@H](CCCNC(=N)N)C(=O)N[C@@H](CCCNC(=N)N)C(=O)N[C@@H](Cc1ccc(O)cc1)C(N)=O)[C@@H](C)CC)[C@@H](C)CC,"Induced myeloid leukemia cell differentiation protein Mcl-1 (MCL1, Homo sapiens, UniProt Q07820)",binding,microscale thermophoresis,,,MBP fusion in DDM micelles,20.5 ± 8 nM
CC(CC1CCCCC1)Nc1nn2c(=O)ccnc2s1 (centres unmarked),PPM1D,binding,,,,,1100 nM
CC1=C(C)C(Oc2c(F)cc3c(C)cc(=O)oc3c2F)OC1=O (racemic),"RMS3 (Lathyrus oleraceus, UniProt A0A109QYD3, S96C)",binding,fluorescence,,,,126000 nM
N=C(N)NCCC[C@H](NC(=O)[C@H](Cc1c[nH]cn1)NC(=O)[C@H](CO)NC(=O)[C@H](Cc1c[nH]cn1)NC(=O)[C@H](Cc1c[nH]cn1)NC(=O)[C@H](CCCCN)NC(=O)[C@H](CCC(=O)O)NC(=O)[C@H](Cc1c[nH]cn1)NC(=O)[C@H](Cc1ccccc1)NC(=O)[C@H](CCCCN)NC(=O)[C@@H](N)CCCNC(=N)N)C(=O)N[C@@H](CCC(=O)O)C(=O)N[C@@H](Cc1ccccc1)C(=O)O,TMEM97,,SPR,pH 7.4,25 °C,,3130 ± 330 nM
COC(=O)CCCNC(=O)c1cc(S(N)(=O)=O)c(Cl)cc1NC1CCCCC1,"Carbonic anhydrase 13 (CA13, Homo sapiens, UniProt Q8N1Q1)",,,pH 7,,,2000 nM
CC1=C[C@H](O/C=C2/C(=O)O[C@@H]3c4ccccc4C[C@H]23)OC1=O (racemic),"RMS3 (Lathyrus oleraceus, UniProt A0A109QYD3, S96A)",binding,fluorescence,,,,503000 nM
CC(C)CC(NC(=O)c1ccc(Cl)cc1)C(=O)Nc1ccc(S(N)(=O)=O)cc1 (centres unmarked),PPM1D,binding,,,,,6800 nM
CCCCCCCO[C@H]1O[C@H](CO)[C@@H](O)[C@H](O)[C@@H]1O,"Type 1 fimbrin D-mannose specific adhesin, lectin domain (fimH, Escherichia coli K-12, UniProt P08191)",binding,isothermal titration calorimetry,,25 °C,"global fit, two runs",28.9 nM
C[C@H](N)C(=O)N[C@@H](C)C(=O)N[C@@H](C)C(=O)N[C@@H](CCCNC(=N)N)C(=O)N[C@@H](CCCCN)C(=O)N[C@@H](Cc1ccccc1)C(=O)N[C@@H](Cc1c[nH]cn1)C(=O)N[C@@H](CCC(=O)O)C(=O)N[C@@H](CCCCN)C(=O)N[C@@H](Cc1c[nH]cn1)C(=O)N[C@@H](Cc1c[nH]cn1)C(=O)N[C@@H](CO)C(=O)N[C@@H](Cc1c[nH]cn1)C(=O)N[C@@H](CCCNC(=N)N)C(=O)N[C@@H](CCC(=O)O)C(=O)N[C@@H](Cc1ccccc1)C(=O)N1CCC[C@H]1C(=O)N[C@@H](Cc1ccccc1)C(=O)O,TMEM97,,SPR,pH 7.4,25 °C,,4700 ± 700 nM
Cc1c(Cc2ccc(Cl)c(O[C@@H](C)C(=O)O)c2)c2ccc(C(=O)N[C@@H](C)c3ccc(C(C)(C)C)cc3)cc2n1CC1CCC1,PPARG,ligand displacement,TR-FRET,,,,0.92 nM
Cc1cccc2c1N(C(=O)n1ccnn1)CC2,"KAI2 (Arabidopsis thaliana, UniProt Q9SZU7)",,ITC,,,mean of replicates,27700 nM

# Some of these lines once more:
Structure (SMILES),target,effect on,technique,pH,temperature,setting,Kd
CC(C)Cn1cc(Cc2cccc(OC(C)(C)C(=O)O)c2)c2ccc(C(=O)N[C@@H](C)c3cc(F)cc(C(C)(C)C)c3)cc21,PPARG,ligand displacement,TR-FRET,,,,2.87 nM
C=CC(=O)N1CC2(CCN(c3nc(OC4CCN(CCCOC)CC4)nc4c(OCC(F)(F)F)c(-c5c(C)ccc6[nH]ncc56)c(C5CC5)cc34)CC2)C1,"GTPase KRas, GDP-bound (KRAS, Homo sapiens, UniProt P01116, G12D)",,SPR,,,,22100 ± 360 nM
CC1=C[C@H](O/C=C2/C(=O)O[C@@H]3c4ccccc4C[C@H]23)OC1=O (racemic),"RMS3 (Lathyrus oleraceus, UniProt A0A109QYD3, S96A)",binding,fluorescence,,,,503000 nM
C[C@H](N)C(=O)N[C@@H](C)C(=O)N[C@@H](C)C(=O)N[C@@H](CCCNC(=N)N)C(=O)N[C@@H](CCCCN)C(=O)N[C@@H](Cc1ccccc1)C(=O)N[C@@H](Cc1c[nH]cn1)C(=O)N[C@@H](CCC(=O)O)C(=O)N[C@@H](CCCCN)C(=O)N[C@@H](Cc1c[nH]cn1)C(=O)N[C@@H](Cc1c[nH]cn1)C(=O)N[C@@H](CO)C(=O)N[C@@H](Cc1c[nH]cn1)C(=O)N[C@@H](CCCNC(=N)N)C(=O)N[C@@H](CCC(=O)O)C(=O)N[C@@H](Cc1ccccc1)C(=O)N1CCC[C@H]1C(=O)N[C@@H](Cc1ccccc1)C(=O)O,TMEM97,,SPR,pH 7.4,25 °C,,4700 ± 700 nM
